Published values of several laboratories.
Parts stem from different laboratories: compare values within a part only. Changes are numbered by the printed parent chain.

Series 1
Target: Histone acetyltransferase KAT6A, winged helix 1, GST fusion (KAT6A, Homo sapiens, UniProt Q92794, residues 1-85)
Method: protein binding microarray
Form: double-stranded DNA, one strand shown
Sample: in vitro
Concentration: not given
Notes: 8-mer, flanks averaged, mean of 2 arrays, mostly near background
Relative to: not given
Direction: higher = stronger binding
Target sequence (chain): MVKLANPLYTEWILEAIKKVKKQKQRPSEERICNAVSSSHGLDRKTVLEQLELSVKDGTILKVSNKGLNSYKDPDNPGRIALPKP
For `ATCAAGAC`, the E-score was -0.23.
For `GGGCGTGA`, the E-score was 0.219.
With `AGGTGGTC` the E-score was -0.12.
`CCACTTAG` gave an E-score of -0.151.
For `CTCGCCTA`, the E-score was -0.014.
`TACTTTCA` gave an E-score of -0.127.
With `CCAGGAGG` the E-score was -0.199.
For `GTGCGAGA`, the E-score was -0.295.
With `CTTTGGCA` the E-score was -0.206.
For `AAGGCCTT`, the E-score was -0.118.
For `CCGTCGTC`, the E-score was 0.295.
`ACCAGCAG` gave an E-score of -0.172.
With `GCCAGTGA` the E-score was -0.213.
With `CTCAGCGC` the E-score was 0.349.
With `ATGCAATC` the E-score was -0.135.
`AAGGTCGA` gave an E-score of -0.033.
`CAGTCGTA` gave an E-score of -0.0161.
For `CCTAAACG`, the E-score was 0.0762.
With `CTGATACA` the E-score was -0.0933.
`CGAAGACA` has an E-score of 0.108.

Series 2
Target: NFE2, bZIP domain (human)
Method: DHFR protein complementation
Sample: yeast
Notes: single substitutions, most at no-binding floor
Relative to: wild-type JUN-FOS pair
Direction: higher = stronger binding
Parent: JUN, bZIP domain (human); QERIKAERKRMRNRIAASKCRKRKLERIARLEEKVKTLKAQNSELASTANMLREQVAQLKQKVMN; partner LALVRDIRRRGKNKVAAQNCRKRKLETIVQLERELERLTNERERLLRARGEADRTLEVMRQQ
The binding fitness of `M51G` is reported as -1.33 natural log.
For `E33R`, the binding fitness was -1.52 natural log.
For `K36A`, the binding fitness was -1.47 natural log.
The binding fitness of `S43I` is reported as -1.46 natural log.
With `N42A` the binding fitness was -1.25 natural log.
`M51D` has a binding fitness of -1.4 natural log.
`L52V` has a binding fitness of -1.41 natural log.
With `E54L` the binding fitness was -1.43 natural log.
With `L38F` the binding fitness was -1.39 natural log.
For `A46Q`, the binding fitness was -1.1 natural log.
`K34E` gave a binding fitness of -1.55 natural log.
`T37G` has a binding fitness of -1.48 natural log.
With `E33P` the binding fitness was -1.49 natural log.
`N42Y` has a binding fitness of -1.51 natural log.
The binding fitness of `Q41S` is reported as -1.57 natural log.
For `Q55V`, the binding fitness was -1.48 natural log.
The binding fitness of `Q41M` is reported as -1.56 natural log.
`Q41N` gave a binding fitness of -1.49 natural log.
`Q55H` has a binding fitness of -1.54 natural log.

Series 3
Target: Max dimerization protein 1, bHLH-zipper, MAX partner unstated (MXD1, Homo sapiens, UniProt Q05195, residues 56-136)
Method: protein-binding microarray
Form: double-stranded DNA, one strand shown
Sample: in vitro
Concentration: not given
Notes: k-mer, scored over probes, only values ≥0.25
Direction: higher = stronger binding
Construct (chain): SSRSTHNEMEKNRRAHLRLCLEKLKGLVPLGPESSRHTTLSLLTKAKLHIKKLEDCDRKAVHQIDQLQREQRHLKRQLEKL
With `CGTTCTCC` the E-score was 0.284.
`ACGTGCTC` gave an E-score of 0.407.
The E-score of `ACAAGCAT` is reported as 0.255.
The E-score of `CACGCCGG` is reported as 0.317.
For `CGTGACAC`, the E-score was 0.275.
With `ATGCGTAA` the E-score was 0.263.
For `CGACCACG`, the E-score was 0.309.
The E-score of `AACCACGA` is reported as 0.311.
`AGCACGCC` has an E-score of 0.345.
With `ACGAGGTA` the E-score was 0.275.
`ACCACCTG` has an E-score of 0.265.
The E-score of `AATCACGT` is reported as 0.414.
With `GCGTGGCA` the E-score was 0.343.
`CCACCCAC` has an E-score of 0.292.
The E-score of `CACCTGTC` is reported as 0.257.
With `ACACGCTA` the E-score was 0.324.
For `CGTGCGAG`, the E-score was 0.278.

Series 4
Target: CCNE2, cyclin fold, Cln2 fusion (human)
Method: yeast growth competition, sequencing
Sample: yeast
Notes: strong parent motif
Relative to: not given
Direction: higher = stronger binding
Parent: CDC25A docking peptide (human); PPHRRRLLFACSP
`C11G` — result for “normalised enrichment score”: 2.01.
Under “normalised enrichment score”, `L7A` is recorded as 0.866.
`R4P`: “normalised enrichment score” 0.693.
Under “normalised enrichment score”, `F9L` is recorded as 0.944.
`R4C`: “normalised enrichment score” 3.54.
`L8V`: “normalised enrichment score” 3.29.
Under “normalised enrichment score”, `S12Y` is recorded as 1.93.
Under “normalised enrichment score”, `L8D` is recorded as 3.81.
Under “normalised enrichment score”, `R6L` is recorded as 0.956.
`H3V`: “normalised enrichment score” 4.34.
Under “normalised enrichment score”, `P13M` is recorded as 1.55.
`A10D`: “normalised enrichment score” 3.89.
`P13Y`: “normalised enrichment score” 2.37.
`R4Y` — result for “normalised enrichment score”: 0.969.
`P2L` — result for “normalised enrichment score”: 0.634.
For `R5E`, “normalised enrichment score” read -0.082.
For `C11V`, “normalised enrichment score” read 2.25.
`P13Q`: “normalised enrichment score” 1.92.

Series 5
Target: RNA binding protein fox-1 homolog 2, RRM domain, GST-SBP tag (RBFOX2, Homo sapiens, UniProt O43251-10, residues 100-194)
Method: RNA Bind-n-Seq
Form: RNA
Sample: in vitro
Concentration: 365 nM
Notes: natural RNA segment, single round, ends assumed
Relative to: no-protein control
Direction: higher = stronger binding
Target sequence (chain): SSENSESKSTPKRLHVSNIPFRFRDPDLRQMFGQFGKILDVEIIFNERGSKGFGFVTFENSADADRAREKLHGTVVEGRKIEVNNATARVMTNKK
`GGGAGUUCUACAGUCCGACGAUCGGACCACAGGCCUGUACCACCAUGGCCAGCUUUAGAGAGUAAAACAUUUUAAUUUGUUCUUGAUUUGUAUGAUGUUGGGGGCGUUAGCAUUACGUGUUGAAUAUUUUGAGUGGAAUUCUCGGGUGCCAA`: “RBNS enrichment (R)” 0.785.
For `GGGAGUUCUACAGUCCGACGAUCCUGUGCAAUUAUGUAAAUUUUCAACUGUCUUCCUCAAAAUAAAGAAGUAUGGUAAUCUUUACCUGUAUACAGUGCAGAGCCUUCUCAGAAGCACAGAAUAUUUUUAUAUUUGGAAUUCUCGGGUGCCAA`, “RBNS enrichment (R)” read 0.373.
`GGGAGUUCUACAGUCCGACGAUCACCAGUGCUGAAGAAUAAUGAGUGAGAACACUUAAUUUGAGAGUUAGACAAAUACAGCCCACUUUGGAUUUCAUCCUAGUGAACAGACUAAAACUUUGCAGUAAAAUACCUGGAAUUCUCGGGUGCCAA` — result for “RBNS enrichment (R)”: 0.541.
For `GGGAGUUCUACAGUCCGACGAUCUCCUCCCAGGUUGGUGUCCCACUGGACAGGUCACAAUGCAGGCUGCCUGCUUUGCCUCCUCCUGUGUUUCCCUGCUCCAGGGCCACUUCCAGGGAUUACAUGGAGGAUCAUGGAAUUCUCGGGUGCCAA`, “RBNS enrichment (R)” read 1.44.
Under “RBNS enrichment (R)”, `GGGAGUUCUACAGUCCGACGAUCCAGAUUAGGGGCUCCCUGGUUAGAGGGUUGUAAGGUACAGGGUGCUGUCCAGCCUCUGAGUACCAUGUUAUUUCAGCUCCAUGUUGCCCUGCAACAGGAAGCAGGAAGGUUGGAAUUCUCGGGUGCCAA` is recorded as 0.255.
`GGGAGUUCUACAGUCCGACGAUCAUUUUGAGUGCUGUUUCCUUUUUAGGAAAGAACAGCACUGUGGAAAUUUGCUUUUCCCCAUAGCAUGUUAGGAAGGAAGUACAGGUCGUUACCUAAGCUAGCGUGGGCUUUGGAAUUCUCGGGUGCCAA`: “RBNS enrichment (R)” 12.
`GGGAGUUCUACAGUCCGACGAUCUAACAAAAUGGGGUGUUAAUUUUUGUACAGUCUGUGGGCAUUUACACAUUUUUAAUGUAUUAAAAUUUGGUAAUUAUGUGUACAUUAAAUUAAUAAAAGUUACUUCUAGUUGGAAUUCUCGGGUGCCAA`: “RBNS enrichment (R)” 1.32.
For `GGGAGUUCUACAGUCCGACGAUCCAAUAGUAAUAAGGUAGCAUUUCUAGUCUUCCUCAUUACAAAAUGUAGCUGUUUUCUAAGUAGGAAAAUGUAAUUUGAAAUUAUCUUGCCACCAUACAGUUUUACUUUUUUGGAAUUCUCGGGUGCCAA`, “RBNS enrichment (R)” read 0.419.
`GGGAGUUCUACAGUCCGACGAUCCUGAAAAUAGAGUAUUUUUUUAAAGUAAGGCUGUCUUGGUUUAAAAGCAGAUUACAGAAAUGUAAGUCAACUUAAGAACGGUGAAUGAAUGUAAAAACAUUCAGUUGAGAUGGAAUUCUCGGGUGCCAA`: “RBNS enrichment (R)” 0.356.
`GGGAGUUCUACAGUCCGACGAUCGGAAAUAACUGUGUAACAAAUCGUAUUAUAAAUAUUUCAAUUAAUUUUACUCUGAAUUUGUUUAUUAAAAGACUUUUGAACAUGAAAUGAUUAGUAUUACUUGAAUGCAUUGGAAUUCUCGGGUGCCAA`: “RBNS enrichment (R)” 1.01.
Under “RBNS enrichment (R)”, `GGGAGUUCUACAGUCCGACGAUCUGGGAAGAGGGGUUCUGGACUGUGCCUGCAUUAACUCCACGCUGGGGAGGGCGCGCUGCUGGUCCACAUUGGCUCCAUGGGGGAGCCCUCCCCUUGAGUUGGGGCUGAUAUGGAAUUCUCGGGUGCCAA` is recorded as 1.21.
`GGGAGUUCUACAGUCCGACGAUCUUCCCUUUAGAAGCUUGAAGUUUGAUACUAUUGCUUUCCCCAUUAUAAGGAUUAUACAGUAUUAAUUAAUUAUAAGGCCCAAAGUUUGUUUUGGCAAAUAAAGUAUUAUUUGGAAUUCUCGGGUGCCAA`: “RBNS enrichment (R)” 0.881.

Series 6
Target: ABI1, truncated, D143A, DHFR fusion (Arabidopsis thaliana)
Method: DHFR PCA, deep sequencing
Sample: yeast
Notes: methotrexate growth selection, single substitutions
Together with: (+)-ABA 0.11 µM
Relative to: wild-type fitted maximum
Direction: higher = stronger binding
Parent: PYL1, truncated, DHFR fusion (Arabidopsis thaliana); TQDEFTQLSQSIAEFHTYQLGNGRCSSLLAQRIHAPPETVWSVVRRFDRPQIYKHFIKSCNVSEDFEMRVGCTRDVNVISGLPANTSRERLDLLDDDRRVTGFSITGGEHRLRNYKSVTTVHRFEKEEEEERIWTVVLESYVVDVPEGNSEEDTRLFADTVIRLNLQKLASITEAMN; partner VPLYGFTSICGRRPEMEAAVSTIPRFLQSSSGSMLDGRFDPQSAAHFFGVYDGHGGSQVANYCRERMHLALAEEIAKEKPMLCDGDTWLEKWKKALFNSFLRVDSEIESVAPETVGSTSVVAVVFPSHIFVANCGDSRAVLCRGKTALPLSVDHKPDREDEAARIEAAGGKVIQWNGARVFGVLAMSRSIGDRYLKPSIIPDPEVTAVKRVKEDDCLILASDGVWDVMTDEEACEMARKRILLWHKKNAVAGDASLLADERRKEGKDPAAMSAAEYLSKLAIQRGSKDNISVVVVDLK
For `P37G`, “relative binding score” read -2.58%.
Under “relative binding score”, `V78Q` is recorded as 12.1%.
`R24Q` — result for “relative binding score”: 59.6%.
Under “relative binding score”, `G108Q` is recorded as -2.16%.
`G23D` — result for “relative binding score”: 9.96%.
`N177A` — result for “relative binding score”: 58.9%.
`I133K`: “relative binding score” 17.1%.
Under “relative binding score”, `F56S` is recorded as -2.01%.
`R46W`: “relative binding score” -1.56%.
Under “relative binding score”, `R32T` is recorded as 40.1%.
For `R46F`, “relative binding score” read -9.46%.
Under “relative binding score”, `V121H` is recorded as -6.49%.
For `F56K`, “relative binding score” read -3.84%.
Under “relative binding score”, `T160L` is recorded as 9.94%.
`V43I` — result for “relative binding score”: 48%.
`R111W`: “relative binding score” -0.741%.

For quick reference, copied from above (series 3):
With `CGTTCTCC` the E-score was 0.284.
`ACGTGCTC` gave an E-score of 0.407.
The E-score of `ACAAGCAT` is reported as 0.255.
The E-score of `CACGCCGG` is reported as 0.317.
For `CGTGACAC`, the E-score was 0.275.
With `ATGCGTAA` the E-score was 0.263.
For `CGACCACG`, the E-score was 0.309.
The E-score of `AACCACGA` is reported as 0.311.
`AGCACGCC` has an E-score of 0.345.
With `ACGAGGTA` the E-score was 0.275.
